# Measurements collected from several papers.
# Each numbered part is a random draw from the data of one study; scales do not carry over between parts.

# Study 1 — method: protein binding microarray; form: double-stranded DNA, one strand shown; matrix: in vitro; concentration: not given; baseline: not given; direction: higher = stronger binding
# Target: Histone acetyltransferase KAT6A, winged helix 2, GST fusion (KAT6A, Homo sapiens, UniProt Q92794, residues 85-181)
# Setting: 8-mer, flanks averaged, mean of 2 arrays, mostly near background
# Target sequence (chain): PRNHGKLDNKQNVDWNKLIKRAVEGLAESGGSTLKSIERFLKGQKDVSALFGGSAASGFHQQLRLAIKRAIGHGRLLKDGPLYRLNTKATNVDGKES
Sequence,E-score
ATTCGTAG,0.0808
TAATCGGA,0.0426
CCAGTCTA,-0.0633
ATTGGCGC,-0.0261
GCACTTAA,-0.00306
CAGTTGAA,-0.192
ACTAGCCT,-0.138
AAGCCCGG,0.0338
CTGGAGTA,-0.114
AAAAGATC,-0.161
ATCGCTGC,0.0913
GCAACCCC,0.103
AACTGCGT,0.0896
CTGGATAA,-0.032
AAATCTCT,-0.0705
ATATAGAC,0.0998
AATTAAGG,-0.122
GAGCCTCC,0.0227
CAGTTTTC,0.0979
GGGTTGCA,-0.0283
AACTTATC,-0.0529
ACTAGCGA,0.0626
CGACGTCG,-0.128
CCGAGCGA,0.257
GCTAGAAC,0.00748

# Study 2 — method: RNA Bind-n-Seq; form: RNA; matrix: in vitro; concentration: 200 nM; setting: whole 134-nt RNA, ends assumed; with: 150 mM LiCl; baseline: input library; direction: higher = stronger binding; library: 7-deaza-guanosine replaces G
# Target: Ras GTPase-activating protein-binding protein 1, full length (G3BP1, Homo sapiens, UniProt Q13283)
# Sequence of UniProt Q13283 (whole entry, looked up): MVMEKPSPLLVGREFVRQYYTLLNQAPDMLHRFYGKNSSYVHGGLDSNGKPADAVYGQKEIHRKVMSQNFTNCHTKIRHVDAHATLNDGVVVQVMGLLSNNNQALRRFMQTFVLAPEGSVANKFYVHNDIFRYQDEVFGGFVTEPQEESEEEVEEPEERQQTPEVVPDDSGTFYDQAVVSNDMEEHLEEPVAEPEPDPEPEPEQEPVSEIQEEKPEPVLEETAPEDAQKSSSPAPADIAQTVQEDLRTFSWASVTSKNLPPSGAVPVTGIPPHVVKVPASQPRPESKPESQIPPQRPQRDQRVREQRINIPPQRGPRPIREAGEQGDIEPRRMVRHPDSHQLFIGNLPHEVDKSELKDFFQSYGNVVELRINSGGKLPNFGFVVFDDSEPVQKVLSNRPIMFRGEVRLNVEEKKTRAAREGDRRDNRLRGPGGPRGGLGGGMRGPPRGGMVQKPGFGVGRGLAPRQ
# All sequences stand within: GGGAGUUCUACAGUCCGACGAUC … UGGAAUUCUCGGGUGUCAAGG
Sequence,log2 enrichment
UUAUUGAACUGACAAGGUCCUCCCUGUGUUGUAGCAAGGACCAGACUGGCUUGAGCUCUCUGAGAUGACCGAGCAGCCAGACUAUGACCU,-0.0129
AGUCCUGUGCUACACAUCGUAUGUACCGAAUCGGCCCCGGGGCCCCGGGGCCCCGGGGAAAGUAUUAUGUUACGCCGUUCGGAUCUGCAC,-0.0633
GGUGGAAUCCAUAGAGCUCCCCAUGGACAACAAGACCAAUAAGAGGCGUGGGUUCUGCUUUAUUACCUUUAAGGAAGAAGAACCAGUGAA,0.21
CACAGACAACACGCACCCACACAGACACAGAGGGAAGGGGUUGGGAUGGGGACAGGGUGCACAGCAGGGCGGGGUAGGACCCCAGCAAAU,-0.902
UUGCGAAAAGGACCAAUUCCAGUGCCGGAACGAGCGCUGCAUCCCCUCUGUGUGGAGAUGCGACGAGGACGAUGACUGCUUAGACCACAG,-0.426
CAAGUCCUGUGCUACACAUCGUAUGUACCGAAUCGGGCCCGGGCCCGGGGCCCGGGAAAGUAUUAUGUUACGCCGUUCGGAUCUGCACUU,-1.57
UGUCCCAGGGAACGCCGGUGCAGAUGUGCUUCUUGUGGGCUCAGAGGCCUUCGUGCUGCUGGACGGGCAGGAGCUGACGCCUCGCUGGAC,-2.18
ACCAUGCCGGUGGGCAUCUUUGGGAAGUGGGGCAAGGGGGGGAUAGGGAGGGGGGUAACACUUUGGGAACAGGUGGUCCCAGGUCGUUUC,0.441

# Study 3 — method: universal PBM; form: double-stranded DNA, one strand shown; matrix: in vitro; concentration: 600 nM; direction: higher = stronger binding
# Target: Sal-like protein 4, full length isoform A (SALL4, Homo sapiens, UniProt Q9UJQ4, residues 1-1053)
# Sequence of UniProt Q9UJQ4 (whole entry, looked up): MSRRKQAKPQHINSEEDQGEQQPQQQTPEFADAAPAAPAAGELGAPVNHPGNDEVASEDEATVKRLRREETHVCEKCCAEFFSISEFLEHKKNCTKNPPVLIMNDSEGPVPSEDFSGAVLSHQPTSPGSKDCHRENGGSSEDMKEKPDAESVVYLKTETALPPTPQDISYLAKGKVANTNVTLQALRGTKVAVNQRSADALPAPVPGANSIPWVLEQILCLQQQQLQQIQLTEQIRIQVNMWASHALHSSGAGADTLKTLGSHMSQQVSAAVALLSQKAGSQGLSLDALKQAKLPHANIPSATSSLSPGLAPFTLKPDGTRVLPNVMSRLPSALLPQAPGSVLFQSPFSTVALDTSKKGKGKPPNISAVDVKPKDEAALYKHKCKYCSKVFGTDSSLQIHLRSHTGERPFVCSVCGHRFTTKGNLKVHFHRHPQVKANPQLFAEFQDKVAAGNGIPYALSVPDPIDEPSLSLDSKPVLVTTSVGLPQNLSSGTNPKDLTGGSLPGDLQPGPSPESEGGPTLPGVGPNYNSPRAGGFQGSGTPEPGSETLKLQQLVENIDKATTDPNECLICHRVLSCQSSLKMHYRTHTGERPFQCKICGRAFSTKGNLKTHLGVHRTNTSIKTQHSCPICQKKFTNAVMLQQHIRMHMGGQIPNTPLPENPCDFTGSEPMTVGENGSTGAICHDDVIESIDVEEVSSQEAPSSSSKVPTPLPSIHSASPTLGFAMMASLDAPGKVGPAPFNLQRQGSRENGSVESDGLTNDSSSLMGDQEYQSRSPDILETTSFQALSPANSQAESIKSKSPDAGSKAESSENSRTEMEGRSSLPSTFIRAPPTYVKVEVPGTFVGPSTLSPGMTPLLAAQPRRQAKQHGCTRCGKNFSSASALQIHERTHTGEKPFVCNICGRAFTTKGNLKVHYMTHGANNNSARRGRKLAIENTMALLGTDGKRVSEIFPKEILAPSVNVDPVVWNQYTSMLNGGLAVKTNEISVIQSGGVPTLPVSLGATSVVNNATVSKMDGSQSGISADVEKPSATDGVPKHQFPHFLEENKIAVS
# Setting: 8-mer, flanks averaged, mean of replicates
Sequence,E-score
TATGACGA,0.258
CTAGACAA,0.0439
CGCTTTGC,-0.0115
TGTCAAAA,0.264
ATCACTCA,0.12
TGGGGTAA,-0.0814
ATGGCCGA,-0.182
CTACAAGA,0.0552
GGTAGCTA,-0.0244
CTAACCTC,-0.0339
CCCGACTA,-0.253
AGGACTTA,0.051
GATCTCTA,0.0418
CCCTTAGA,-0.122
ACCCGCAC,-0.275
ACTGTGCT,-0.0372
CATTGTAC,0.122
GGGGACCC,-0.44
AACAAATA,0.338

# Study 4 — method: RNA Bind-n-Seq; form: RNA; matrix: in vitro; concentration: 365 nM; baseline: no-protein control; direction: higher = stronger binding
# Target: RNA binding protein fox-1 homolog 2, RRM domain, GST-SBP tag (RBFOX2, Homo sapiens, UniProt O43251-10, residues 100-194)
# Setting: natural RNA segment, single round, ends assumed
# All sequences stand within: GGGAGUUCUACAGUCCGACGAUC … UGGAAUUCUCGGGUGCCAA
# Construct (chain): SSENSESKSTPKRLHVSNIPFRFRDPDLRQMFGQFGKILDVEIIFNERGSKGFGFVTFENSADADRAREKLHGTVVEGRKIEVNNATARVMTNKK
Sequence,RBNS enrichment (R)
CUCUCUGCUCGAGGCAGCAGGGGGCGCUUUGCAGUAUAGUUGAGGAAAAUGACCGCUCCUUGACCAAACUGAGAUGCACUUGGUGUGUGGGAACUGAUUGCUUCCUCCCU,0.384
UAAGACUAAGAUCUGUCUUUUUGGUGACUAACACUUCAGUUCUUUCAACUCCUAUUAAUACCCAUAAUCAGUAACCUACCAAGAAAAGCCCGUAUUUGGAAAGUGUGGAG,1.02
GGUAGCAUGGGUGGUUCAUCAGAGCAGUGGUGGCUCUUGCCUGGCAGUCAGCCCCUUCAAGUCUGGACAGCCCUGGAGUUCUGGUCCCCUCUCCUAGCACUGUACCUUUA,1.12
UUGCCAUGUAACAAAUUACUGCUUGACAUGUUGGCAUUCAUAUUAAUUACGGAUGUAAUUCUGUGUAUCUUACUGUGACUCCGAAAACUGUAGUAUUGGUGUCAUGGGAA,0.325
ACUUCCCUCCCCCUCUGUCAACUGCUGUGAAUGCUGUAUGGUGUGUGUUCUCCUCUGUUACUGAUCUGGAAGUGUGGGAACGUGAACUGAAGCUGAUGGGCUGCGAACAU,1.61
GGCAGGAGGAUUGCUUUAGCCCUGGAGGUCGAGGCUGCAGUAAGCCAUGAUUGCGCCACUGCACUCAGCCCGGGUGACAAAGCAAGACCCUGUCUCAGAAAAAAAGAAAA,0.364
ACACUACUGCACCGCACCGCACCCAGAAAGAACUUUCUCCCCAGCGGUGACGACUGCUCCAUGGGGAAGCUAAAAUAUCCUCGCCAGUUCCGGAGCACCCUUGUGAAGAA,1.95
UAUUUGAAGCCACACACACUGGUGUAAUAUGCUUAGUACUCUAGGUCAAGGAUUUGUUGGUAAAUGGAACAUUUUAGCAUAGUCAUGAUUUUUGGUUGCCUAGACAUCAG,0.765

# For quick reference, copied from above (study 3):
Sequence,E-score
GGTAGCTA,-0.0244
CTAACCTC,-0.0339
CCCGACTA,-0.253
AGGACTTA,0.051
GATCTCTA,0.0418
